Published values collected from several papers.
Compare with care: the assays were run in different laboratories. Numbers after ± are the reported error. Values after ≈ are worked out from the molar mass of the structure shown.

SMILES | organism | assay | test system | conditions | how to read | endpoint | result
O=C(C1CCN(c2nnnn2-c2ccccc2)CC1)N1CCCc2ccccc21 | Plasmodium falciparum |  | erythrocytes, Dd2, pi4k variant |  |  | IC50 | 0.778 µM
c1ccc(CN2CCNCCN(Cc3ccccc3)CCNCC2)cc1 | Leishmania donovani | parasite growth, resazurin |  | 72 h, amastigote |  | IC90 | > 25 µM
CNC(CC(C)C)C(=O)NC1C(=O)NC(CC(N)=O)C(=O)NC2C(=O)NC3C(=O)NC(C(=O)NC(C(=O)O)c4cc(O)cc(O)c4-c4cc3ccc4O)C(O)c3ccc(c(Cl)c3)Oc3cc2cc(c3OC2OC(CO)C(O)C(O)C2OC2CC(C)(NCc3ccc(-c4ccc(Cl)cc4)cc3)C(O)C(C)O2)Oc2ccc(cc2Cl)C1O (stereo not shown) | Enterococcus faecalis and Enterococcus faecium |  | VanA BM4166 and ATCC BAA-2317 | together with: lipoteichoic acid 100 µg/mL | reference: without lipoteichoic acid | MIC fold increase | 2 fold
[O-][N+]1=C(c2ccc(Cl)cc2)C2=NCCCN2c2ccccc21 | Finegoldia magna |  |  |  |  | MIC | 2 µg/mL (≈ 6.41 µM)
CN1CC(=O)N=C1N.C[C@H](CCC(=O)O)[C@H]1CC[C@H]2[C@@H]3CC[C@@H]4C[C@H](O)CC[C@]4(C)[C@H]3CC[C@]12C | Shigella flexneri |  | ATCC 9199 | 1 mg per disc, 18 to 24 h, 37 °C |  | antibacterial activity | inactive
CC(=O)[O-].F[P-](F)(F)(F)(F)F.[Cu+2].c1ccc(CN2CCN3CCN(CC2)CCN(Cc2ccccc2)CC3)cc1 | Leishmania donovani | parasite growth | THP-1 macrophages | intracellular amastigotes |  | IC90 | > 20 µM
CC(=O)Oc1ccc(Cn2ccc(=O)[nH]c2=O)cc1C1OC(c2ccccc2)=NN1C(C)=O (stereo not shown) | varicella-zoster virus | plaque formation, plaque reduction | HEL fibroblasts, TK+ strain OKA |  |  | EC50 | > 100 µM
CCCCn1c2ccccc2c2ccnc(-c3ccc(OC)cc3)c21 | Echinococcus granulosus sensu stricto |  | protoscoleces | 48 h |  | LC50 | 66.6 ± 3.09 µM
CCn1c(-c2ccc(OC)cc2)c(-c2ccc(OC)cc2)n(CC)c1=[Se+][Au-][P+](CC)(CC)CC.[Cl-] | Acinetobacter baumannii |  | carbapenem-resistant | 10, 20, 40 µM, 2 h | reference: untreated | superoxide dismutase activity | decreased
S=C(NCc1ccccn1)NCc1ccccn1 | Agrobacterium tumefaciens |  |  | 10 µg/mL |  | inhibition zone diameter | 21 mm
CCCCCCC(CC=CCCCCCCCC(=O)OCCOCn1cnc2c(=O)[nH]c(N)nc21)OC(=O)CCCCC1SCC2NC(=O)NC21 (stereo not shown) | Epstein-Barr virus | viral DNA accumulation, DNA hybridization | Akata | 72 h |  | EC90 | 41.5 µM
COc1ccc(-c2oc3ccc(-c4cc(OC)c(OC)c(OC)c4)cc3c2C#CC2(O)CCCCC2)cc1 | hepatitis C virus | viral entry, HCV pseudoparticle entry | genotype 1b | 10 µM | reference: DMSO | remaining activity | 77%
F[P-](F)(F)(F)(F)F.F[P-](F)(F)(F)(F)F.[Cu+2].c1ccc(CN2CCCNCCN(Cc3ccccc3)CCCNCC2)cc1 | Leishmania donovani | parasite growth, resazurin |  | 72 h, amastigote |  | IC90 | > 15 µM

Excerpt of the above:
SMILES | organism | assay | test system | conditions | how to read | endpoint | result
CCCCCCC(CC=CCCCCCCCC(=O)OCCOCn1cnc2c(=O)[nH]c(N)nc21)OC(=O)CCCCC1SCC2NC(=O)NC21 (stereo not shown) | Epstein-Barr virus | viral DNA accumulation, DNA hybridization | Akata | 72 h |  | EC90 | 41.5 µM
